Values quoted from earlier work, collected from citations in different studies.
Each numbered part shows a few of the values that one paper quotes. ± marks the error that the study gave.

Study 1 — target: Mamu-B*01 macaque; read-out: peptide-MHC binding; form: peptide
Molecule	IC50 [µM]
EDVVLVRI	0.0142
IDDVTIKI	0.0334
VDLIEHLL	0.00629

Mixed results
Structure (SMILES)	species	route	dose	time	relative to	endpoint	result
O=S(=O)(O)C(F)(F)C(F)(F)C(F)(F)C(F)(F)C(F)(F)C(F)(F)C(F)(F)C(F)(F)F	mice, male	–	–	–	–	half-life	43 days
CC[C@H](C)CCCCC(=O)N[C@@H](CCN)C(=O)N[C@H](C(=O)N[C@@H](CCN)C(=O)N[C@H]1CCNC(=O)[C@H]([C@@H](C)O)NC(=O)[C@H](CCN)NC(=O)[C@H](CCN)NC(=O)[C@H](CC(C)C)NC(=O)[C@@H](CC(C)C)NC(=O)[C@H](CCN)NC1=O)[C@@H](C)O	patients	–	above 5 mg/kg/day (ideal body weight)	–	–	nephrotoxicity incidence	65%
O=c1ccc2ncc(=O)n3c2n1C[C@H]3CN1CCC(NCc2cc3c(cn2)OCCC3)CC1	–	oral	dose not given	–	dose	fraction of dose absorbed	~50%
C[C@H](c1ccccc1)n1cncc1C(=O)OCCC(=O)O	rat	–	MOC-etomidate infusion	4 h after infusion end	–	blood concentration	480 ± 110 µM
O=C(O)C(F)(F)C(F)(F)C(F)(F)C(F)(F)C(F)(F)C(F)(F)C(F)(F)F	mice, female	–	–	–	–	half-life	16 days

Excerpt of the above (mixed results):
Structure (SMILES)	species	route	dose	time	relative to	endpoint	result
O=c1ccc2ncc(=O)n3c2n1C[C@H]3CN1CCC(NCc2cc3c(cn2)OCCC3)CC1	–	oral	dose not given	–	dose	fraction of dose absorbed	~50%
